Assay results pooled from the literature.
A part holds a random share of what one study measured.

Sample 1
Target: Interferon regulatory factor 5, full length, phosphomimetic (IRF5, Homo sapiens, UniProt Q13568-2, residues 1-514, S451D/S453D/S456D/S462D)
Method: protein-binding microarray
Form: double-stranded DNA, one strand shown
Matrix: in vitro
Concentration: 940 nM top
Setting: 60-bp whole probe
Together with: salmon DNA 0.4 mg/ml
Reference: random background probes
Direction: higher = stronger binding
Shared flanks, not repeated: GCCTAGCAC … GTCTTGATTCGCTTGACGCTGCTG
| Sequence | fitted relative affinity [z-score] |
| --- | --- |
| TTAGGTTTCGGGACTAGGTTAGTGCTA | 7.76 |
| TTAGGTTTCCTTATCTTTTAGTGCTAG | 1.71 |
| TTAGGTTTCGACTATCGCTTAGTGCTA | 9.46 |
| GACGATTTCATTATCGAGACGTGCTAG | 0.834 |
| AACTAAAGAGACCACAAAAAGTGCTAG | 0.332 |
| GACGATCTCAGCTTCGAGACGTGCTAG | 0.0882 |
| GAATGTGTCTTAAATAGGAGAGTGCTA | -0.191 |
| GAGATTTTCATTATTGCTTCGTGCTAG | 1.6 |
| TTAGGTCTCCTTTTCCTGTAGTGCTAG | 0.77 |
| TCACCTTGGGCTCTAGGACTGTGCTAG | -0.478 |
| TTAGGTTTCGGTTTCGGTTAGTGCTAG | 16.4 |
| GACGAACTGATACTGGAGACGTGCTAG | -0.0217 |
| TCAGTCCTCACTTCCTTACTGTGCTAG | 0.92 |
| GACGGACTGGGGACTGGCGACGTGCTA | -0.403 |
| GACGGATTGGGACTGGGGACGTGCTAG | -0.334 |
| GACGGACTGGGGACTGAGGACGTGCTA | -0.424 |
| GACGAACTGGGATTTCGAGACGTGCTA | -0.289 |
| TCATCTGTCCGTGCTCAGACTGTGCTA | -0.128 |
| GACGTTATCCTACTGCTGACGTGCTAG | 0.275 |
| TTAGGTTTCCTTTCCCCTTAGTGCTAG | 2.34 |
| TCCCCTCTCATTCCAATTCTGTGCTAG | 1.76 |
| TTAGAACTGAGTTACGATTAGTGCTAG | -0.324 |
| TTAGGCTTCCTTTTCCTTTAGTGCTAG | 0.351 |
| CATCGTAAGCAAAAATGATTGTGCTAG | -0.542 |
| GACGGACTGGGGCTGGGGACGTGCTAG | 0.231 |

Sample 2
Target: RNA binding protein fox-1 homolog 2, RRM domain, GST-SBP tag (RBFOX2, Homo sapiens, UniProt O43251-10, residues 100-194)
Method: RNA Bind-n-Seq
Form: RNA
Matrix: in vitro
Concentration: 365 nM
Setting: natural RNA segment, single round, ends assumed
Reference: no-protein control
Direction: higher = stronger binding
Shared flanks, not repeated: GGGAGUUCUACAGUCCGACGAUC … UGGAAUUCUCGGGUGCCAA
Residues (chain): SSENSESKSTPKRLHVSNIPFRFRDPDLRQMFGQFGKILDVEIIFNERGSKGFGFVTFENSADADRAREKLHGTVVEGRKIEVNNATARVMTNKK
| Sequence | RBNS enrichment (R) |
| --- | --- |
| GCAAACUUUUAUGGCCUGUCCCAUGUGCAUCUUAUUUAAAAUUUCCCCCAGAAAUCACUCUCCUGUUUACUAUUCCAGAGCUCUAGUUGUAGGCAGCGUGUGGCGUCUCA | 2.31 |
| UAACUACAGAUGACUUUUUAAUAUUGUAAAAUAUUUUCUGCUUUUUGACUUGCAUCUGAGAGUUUCUUGUUUCAGUAAAAAAAGAAAAGACAAAAAAAUCAGCUUUGGAA | 1.17 |
| AAGAGCCUGGACAUGCCUACCCUGAAAGCAGCUGCCUUCAUUACCCUUUUCUGUGCGCCUGUUCUGAAGCCAACUUAAACCUGUCCACAUCUUCACUACCAUUCGCCCUU | 0.47 |
| GGAGCAGCAGUUGACUCCUGGUUCCCUCCCUAUUUCAGCCUGGAUGUGGGGCUGGUGGAGAUGCCUCCACCCCAGGAGCCUCUGCAUAUGUGGUUCGUGGCCUUCUUCUC | 0.371 |
| AUUAAGCCUGUUGAAGUCACUGAGUCAGCAUAAUAAAGACUGCACAGGAGAAUUACCCCUAUACCUGAGCCUCAACCUUCUGGGGGAAAGGGAACUAGAUAACAUACUUC | 0.526 |
| UGUGACUGCCCACUGCCCAGCUGCCUCGGGUACAAGUCCUGGCCCUAUGUCCCAGCUGUCAGGGGCUCAGGGAAUCCUACCCAGCCACCUGUCCUGGGAUGGAGUGUCAG | 0.2 |
| UUGAAGAUUUCUGGCUUUUAGGCCUUUUCUAUUUUGUUCCAUUUAUUUUUGCAGGCAAUCUUUUCCAUGGAGGGCAGGGUAUCCAUUCUUUACCAUGGGUGUACCUGCUU | 0.991 |
| UGUGAUUGGCUGCCUGUUAGCCCAUCGACUAUUCCCGUCACGGUAGUCCUUACCUCUGUCGGCAGCUCAGAGCCUCCACAUUUUUAUAUUUAAUUCUCAUGAUAAAUUAG | 0.311 |
| UGGUUUGACUGACAUUAAAGCCAGUGUUAAAAACUAAAGCUUAGCAACAAAUGUUUUACUAUUUUUACAGGAUACUGUAAGGAAUAAUUUGACUUUUAAGAAAUCUUAAA | 0.421 |
| GUCGCUGCCCCCACCAGAGUCCUAAAACCUGGAUGGACUUGGACGGGACAAGAGGCCUGGACUGAGAUGUGAGUCCCAUGGAAGACUUCCUCUCCACCCCCCACAUCGGU | 0.381 |
| GAGAGAUGGCACACCAGAUGCUUUUGUGAGAAAGGGAUGGUGGAGUGAGAGCCUUUGCCUUUAGGGGUGUGUAUUCACAUAGUCCUCAGGGCUCAGUCUUUUGAGGUAAG | 0.246 |
| AUGGACUUCAGGAUCCACUAGACAGUUUUCAGUUUGCUUGGAGGUAGCUGGGUAAUCAAAAAUGUUUAGUCAUUGAUUCAAUGUGAACGAUUACGGUCUUUAUGACCAAG | 0.472 |

Sample 3
Target: Prothrombin, mature alpha-thrombin (F2, Homo sapiens, UniProt P00734)
Method: aptamer microarray, sandwich
Form: DNA with 2'F-ANA
Matrix: in vitro
Concentration: 200 nM
Setting: whole 15-mer aptamer, many near background
Together with: Cy3 exosite-II aptamer, 400 nM
Direction: higher = stronger binding
Sequence: GGTTGGTGTGGTTGG
| Modification | mean fluorescence intensity [a.u.] |
| --- | --- |
| 2'F-ANA at 1 4 6 9 10 11 13 | 57.6 |
| 2'F-ANA at 2 3 4 5 6 10 11 12 14 15 | 67.2 |
| 2'F-ANA at 1 2 5 14 | 48.3 |
| 2'F-ANA at 1 2 5 6 7 8 9 11 12 | 102 |
| 2'F-ANA at 1 4 5 6 7 8 11 12 13 15 | 68.8 |
| 2'F-ANA at 1 2 3 4 5 9 11 12 13 15 | 71.5 |
| 2'F-ANA at 1 6 7 8 14 15 | 63.2 |
| 2'F-ANA at 1 2 3 5 6 7 9 12 13 15 | 75.1 |
| 2'F-ANA at 2 3 5 7 8 11 12 14 | 65.5 |
| 2'F-ANA at 1 7 9 11 12 15 | 335 |
| 2'F-ANA at 5 8 11 12 13 14 15 | 50 |
| 2'F-ANA at 1 2 3 7 10 11 12 14 | 56.6 |
| 2'F-ANA at 1 2 3 4 6 8 12 13 | 274 |
| 2'F-ANA at 2 9 10 11 12 13 14 | 85.9 |
| 2'F-ANA at 4 6 9 10 13 14 | 60.2 |
| 2'F-ANA at 6 8 10 11 13 14 15 | 140 |
| 2'F-ANA at 5 6 8 9 10 11 | 53 |
| 2'F-ANA at 2 3 4 6 9 10 12 14 | 167 |
| 2'F-ANA at 1 2 3 5 9 10 11 12 | 48.9 |
| 2'F-ANA at 6 8 9 12 15 | 758 |
| 2'F-ANA at 1 8 9 10 11 12 14 | 48.4 |
| 2'F-ANA at 2 6 8 9 13 15 | 270 |
| 2'F-ANA at 1 3 4 5 8 10 11 12 13 | 70.1 |
| 2'F-ANA at 1 2 5 9 10 11 14 15 | 48.3 |
| 2'F-ANA at 1 2 5 7 13 15 | 54.1 |

Sample 4
Target: Histone acetyltransferase KAT6A, both winged helices, GST fusion (KAT6A, Homo sapiens, UniProt Q92794, residues 1-181)
Method: protein binding microarray
Form: double-stranded DNA, one strand shown
Matrix: in vitro
Concentration: not given
Setting: 8-mer, flanks averaged, mean of 2 arrays, mostly near background
Reference: not given
Direction: higher = stronger binding
Target sequence (chain): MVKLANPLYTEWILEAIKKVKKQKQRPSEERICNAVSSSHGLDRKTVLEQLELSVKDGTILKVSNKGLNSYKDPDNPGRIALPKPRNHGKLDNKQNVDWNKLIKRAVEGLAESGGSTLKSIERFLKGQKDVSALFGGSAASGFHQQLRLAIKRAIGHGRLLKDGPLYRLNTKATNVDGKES
| Sequence | E-score |
| --- | --- |
| ACGTCGGG | 0.205 |
| CCTCACCG | 0.00438 |
| ATGAGTCC | 0.0438 |
| ATATGAAA | -0.033 |
| CAACAAAC | -0.0852 |
| CCCGTCAA | 0.251 |
| ACGATGGG | -0.136 |
| GCCCCCTA | -0.229 |
| AAGAGGGG | -0.218 |
| CATAAGTA | -0.151 |
| TTAGGAAA | -0.196 |
| AATCGCCG | 0.359 |
| AATTTATA | -0.0152 |
| ACTTAGTA | -0.0567 |
| AATTATTC | -0.0368 |
| AGCCAGGA | -0.0897 |
| CATTATAA | -0.0201 |
| GCCACAGA | -0.0836 |
| TACCGAGA | -0.0225 |
| AAACCTGG | -0.0674 |
| CGCTGTCA | 0.182 |
| AAGTTTGG | -0.0257 |
| AAGTAGCC | -0.171 |
| TATAGGGA | -0.136 |
| CGAAATAC | -0.00868 |

Repeated from above (sample 4):
| Sequence | E-score |
| --- | --- |
| CAACAAAC | -0.0852 |
| CCCGTCAA | 0.251 |
| ACGATGGG | -0.136 |
| GCCCCCTA | -0.229 |
| AAGAGGGG | -0.218 |
| CATAAGTA | -0.151 |
| TTAGGAAA | -0.196 |
| AATCGCCG | 0.359 |
| AATTTATA | -0.0152 |
| ACTTAGTA | -0.0567 |
